# Experimental data collected from several papers.
# A part holds a random share of what one study measured. “And” joins repeats or separate records; there may be more than shown.
# Sequence of UniProt Q8TF76 (whole entry, looked up): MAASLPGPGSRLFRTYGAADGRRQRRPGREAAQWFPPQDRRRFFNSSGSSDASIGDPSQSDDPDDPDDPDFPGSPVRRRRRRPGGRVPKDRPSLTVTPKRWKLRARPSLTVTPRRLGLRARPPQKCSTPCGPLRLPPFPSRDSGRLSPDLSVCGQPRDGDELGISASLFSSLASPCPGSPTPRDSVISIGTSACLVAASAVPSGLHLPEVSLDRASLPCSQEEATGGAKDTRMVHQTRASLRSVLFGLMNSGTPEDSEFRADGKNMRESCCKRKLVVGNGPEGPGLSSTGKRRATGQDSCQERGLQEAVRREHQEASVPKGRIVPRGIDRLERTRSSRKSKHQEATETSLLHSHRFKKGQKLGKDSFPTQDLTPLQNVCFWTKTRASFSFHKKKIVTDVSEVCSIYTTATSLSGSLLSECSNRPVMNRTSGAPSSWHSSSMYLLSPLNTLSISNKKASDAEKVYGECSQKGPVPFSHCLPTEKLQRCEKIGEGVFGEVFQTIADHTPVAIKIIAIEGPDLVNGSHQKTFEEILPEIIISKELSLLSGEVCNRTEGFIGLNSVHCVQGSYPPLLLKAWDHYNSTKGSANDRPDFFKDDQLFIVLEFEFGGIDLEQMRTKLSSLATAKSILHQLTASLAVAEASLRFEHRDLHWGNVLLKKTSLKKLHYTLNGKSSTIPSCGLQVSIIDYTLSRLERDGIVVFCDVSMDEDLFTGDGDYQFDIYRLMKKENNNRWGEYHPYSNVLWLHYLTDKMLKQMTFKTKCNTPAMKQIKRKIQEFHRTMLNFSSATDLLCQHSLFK
# Sequence of UniProt O75460 (whole entry, looked up): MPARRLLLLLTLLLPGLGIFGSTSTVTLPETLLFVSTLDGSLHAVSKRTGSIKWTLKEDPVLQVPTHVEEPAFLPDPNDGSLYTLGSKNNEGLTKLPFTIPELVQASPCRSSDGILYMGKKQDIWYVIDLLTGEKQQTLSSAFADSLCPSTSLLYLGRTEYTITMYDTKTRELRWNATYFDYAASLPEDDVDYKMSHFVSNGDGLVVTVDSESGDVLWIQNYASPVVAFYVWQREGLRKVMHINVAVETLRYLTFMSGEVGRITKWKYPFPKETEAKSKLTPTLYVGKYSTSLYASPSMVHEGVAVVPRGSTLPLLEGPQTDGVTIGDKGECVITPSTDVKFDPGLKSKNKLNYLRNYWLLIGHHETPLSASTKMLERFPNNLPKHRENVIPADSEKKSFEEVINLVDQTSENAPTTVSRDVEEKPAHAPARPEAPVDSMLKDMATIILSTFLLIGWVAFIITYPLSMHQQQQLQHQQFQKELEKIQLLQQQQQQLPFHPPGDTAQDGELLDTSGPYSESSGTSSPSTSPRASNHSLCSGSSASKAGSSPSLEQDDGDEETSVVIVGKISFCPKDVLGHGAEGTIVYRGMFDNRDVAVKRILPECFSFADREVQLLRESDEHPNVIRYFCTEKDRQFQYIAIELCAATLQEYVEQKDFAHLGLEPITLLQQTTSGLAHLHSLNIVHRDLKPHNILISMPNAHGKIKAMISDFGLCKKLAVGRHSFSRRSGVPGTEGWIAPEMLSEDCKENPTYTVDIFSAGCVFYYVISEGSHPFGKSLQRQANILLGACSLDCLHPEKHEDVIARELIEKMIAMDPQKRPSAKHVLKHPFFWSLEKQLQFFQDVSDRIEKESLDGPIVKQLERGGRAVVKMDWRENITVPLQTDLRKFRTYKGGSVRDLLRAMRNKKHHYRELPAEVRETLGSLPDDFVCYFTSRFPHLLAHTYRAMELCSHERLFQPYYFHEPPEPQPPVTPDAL
# Sequence of UniProt Q14004 (whole entry, looked up): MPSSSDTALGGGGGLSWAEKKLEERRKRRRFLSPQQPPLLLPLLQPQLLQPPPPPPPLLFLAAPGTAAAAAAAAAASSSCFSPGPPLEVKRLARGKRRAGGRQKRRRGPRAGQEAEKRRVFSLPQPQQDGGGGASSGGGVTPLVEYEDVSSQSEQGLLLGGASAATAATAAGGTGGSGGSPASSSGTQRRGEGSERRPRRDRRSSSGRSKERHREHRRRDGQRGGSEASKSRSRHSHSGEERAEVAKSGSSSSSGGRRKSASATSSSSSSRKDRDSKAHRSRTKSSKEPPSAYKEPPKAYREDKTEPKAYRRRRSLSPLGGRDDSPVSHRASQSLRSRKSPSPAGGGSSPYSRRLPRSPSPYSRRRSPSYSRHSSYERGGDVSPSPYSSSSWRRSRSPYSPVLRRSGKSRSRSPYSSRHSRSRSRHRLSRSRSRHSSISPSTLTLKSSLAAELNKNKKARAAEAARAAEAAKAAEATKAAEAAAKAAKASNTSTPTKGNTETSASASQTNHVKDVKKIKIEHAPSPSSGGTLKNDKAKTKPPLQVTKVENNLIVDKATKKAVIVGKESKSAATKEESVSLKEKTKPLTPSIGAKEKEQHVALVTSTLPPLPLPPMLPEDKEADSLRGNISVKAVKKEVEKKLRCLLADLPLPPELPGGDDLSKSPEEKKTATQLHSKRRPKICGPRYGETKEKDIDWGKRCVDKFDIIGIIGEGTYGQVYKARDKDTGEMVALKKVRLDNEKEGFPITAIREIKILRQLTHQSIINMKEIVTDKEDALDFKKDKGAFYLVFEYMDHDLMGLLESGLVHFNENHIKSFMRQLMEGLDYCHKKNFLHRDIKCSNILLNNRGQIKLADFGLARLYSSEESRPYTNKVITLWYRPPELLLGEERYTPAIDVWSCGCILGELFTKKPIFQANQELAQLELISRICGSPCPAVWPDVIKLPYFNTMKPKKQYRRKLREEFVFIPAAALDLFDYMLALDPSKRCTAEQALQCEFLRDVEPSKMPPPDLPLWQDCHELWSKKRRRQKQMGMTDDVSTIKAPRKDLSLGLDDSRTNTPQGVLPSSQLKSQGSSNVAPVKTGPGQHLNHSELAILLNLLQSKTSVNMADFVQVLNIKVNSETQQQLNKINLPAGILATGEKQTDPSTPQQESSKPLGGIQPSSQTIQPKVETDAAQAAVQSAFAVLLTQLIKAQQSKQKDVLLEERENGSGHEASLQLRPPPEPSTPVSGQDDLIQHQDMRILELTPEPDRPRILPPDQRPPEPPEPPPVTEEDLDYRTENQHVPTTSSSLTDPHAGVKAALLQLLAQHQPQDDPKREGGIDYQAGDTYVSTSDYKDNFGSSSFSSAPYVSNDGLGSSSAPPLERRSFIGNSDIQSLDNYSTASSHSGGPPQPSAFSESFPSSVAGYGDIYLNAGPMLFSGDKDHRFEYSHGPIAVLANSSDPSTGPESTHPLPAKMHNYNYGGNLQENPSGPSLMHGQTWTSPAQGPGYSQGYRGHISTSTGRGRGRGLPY
# Sequence of UniProt Q96SB4 (whole entry, looked up): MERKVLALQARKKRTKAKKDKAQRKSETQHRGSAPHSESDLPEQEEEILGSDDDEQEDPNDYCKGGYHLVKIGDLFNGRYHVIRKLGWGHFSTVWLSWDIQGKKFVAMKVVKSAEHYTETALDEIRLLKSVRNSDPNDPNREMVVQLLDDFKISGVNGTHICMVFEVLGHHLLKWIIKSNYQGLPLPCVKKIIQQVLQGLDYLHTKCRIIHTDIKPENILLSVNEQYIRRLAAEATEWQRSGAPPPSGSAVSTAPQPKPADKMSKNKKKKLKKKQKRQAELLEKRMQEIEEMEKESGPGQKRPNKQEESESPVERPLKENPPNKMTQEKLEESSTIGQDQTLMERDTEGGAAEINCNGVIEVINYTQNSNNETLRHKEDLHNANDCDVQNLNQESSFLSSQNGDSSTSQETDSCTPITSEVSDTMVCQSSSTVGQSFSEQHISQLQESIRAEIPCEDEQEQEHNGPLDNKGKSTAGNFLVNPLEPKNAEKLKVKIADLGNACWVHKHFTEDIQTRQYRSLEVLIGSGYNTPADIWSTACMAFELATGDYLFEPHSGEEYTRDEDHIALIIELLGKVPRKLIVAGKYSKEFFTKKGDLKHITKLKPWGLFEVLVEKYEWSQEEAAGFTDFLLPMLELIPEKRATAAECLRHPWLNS

# Study 1 — Structure (SMILES): CCOc1ccc(Nc2c3c(nc4ccccc24)CCC3)cc1; organism: Leishmania infantum; technique: qPCR, delta Ct; host: golden hamster, infected; route: oral; dose: 10 mg/kg/day; time: 10 days; relative to: microglobulin reference gene
test,test system,relative mRNA level
refers to: IL10,liver,12.5 and 11.6 and 13.7 and 12.3 and 11.9
refers to: IL10,spleen,9.36 and 10.4 and 8.37 and 7.09 and 6.96
refers to: TGF-beta,spleen,-0.064 and -0.272 and 0.032 and 0.219 and -0.19 and -0.263
refers to: IL4,spleen,-0.753 and -0.452 and -0.515 and -0.348 and -0.469 and -0.706

# Study 2 — concentration: 1 µM
# SMILES: C[C@H](c1ccc(F)cc1)N(Cc1cccc(C(=O)O)c1)C(=O)c1cnc2ccccc2c1
target,test,remaining binding [%]
"CDK19 (Homo sapiens, UniProt Q9BWU1)",competition binding,100
"SRC (Homo sapiens, UniProt P12931)","cell-free assay, competition with immobilised ligand",100
"AAK1 (Homo sapiens, UniProt Q2M2I8)",binding,100
"MAP3K19 (Homo sapiens, UniProt Q56UN5)","cell-free assay, competition with immobilised ligand",72
"FLT3 (Homo sapiens, UniProt P36888, D835V/ITD)","cell-free assay, competition with immobilised ligand",99
"Aurora kinase C (AURKC, Homo sapiens, UniProt Q9UQB9)","cell-free assay, competition with immobilised ligand",100
"MAP3K4 (Homo sapiens, UniProt Q9Y6R4)","cell-free assay, competition with immobilised ligand",100
"HASPIN (Homo sapiens, UniProt Q8TF76)","cell-free assay, competition with immobilised ligand",100
"SRPK1 (Homo sapiens, UniProt Q96SB4)","cell-free assay, competition with immobilised ligand",95
"CDKL1 (Homo sapiens, UniProt Q00532)","binding, competition with immobilised ligand",100
"ERN1 (Homo sapiens, UniProt O75460)","cell-free assay, competition with immobilised ligand",78
"WNK3 (Homo sapiens, UniProt Q9BYP7)","cell-free assay, competition with immobilised ligand",87
"CDK13 (Homo sapiens, UniProt Q14004)","cell-free assay, competition with immobilised ligand",98
"PRKD3 (Homo sapiens, UniProt O94806)","cell-free assay, competition with immobilised ligand",100
"Ribosomal protein S6 kinase alpha-6, C-terminal kinase domain (RPS6KA6, Homo sapiens, UniProt Q9UK32)","cell-free assay, competition with immobilised ligand",100
"BMPR2 (Homo sapiens, UniProt Q13873)","cell-free assay, competition with immobilised ligand",75
"Non-receptor tyrosine-protein kinase TYK2, JH1 (TYK2, Homo sapiens, UniProt P29597)","cell-free assay, competition with immobilised ligand",100
"STK10 (Homo sapiens, UniProt O94804)","cell-free assay, competition with immobilised ligand",89
"STK36 (Homo sapiens, UniProt Q9NRP7)","cell-free assay, competition with immobilised ligand",100
"TTK (Homo sapiens, UniProt P33981)","cell-free assay, competition with immobilised ligand",100

# Study 3 — host: human; medium: microsomes or S9; concentration: 2 µM; time: 0.5 h
Compound,remaining compound
Cn1ncnc1CN(Cc1ccc2c(c1)OCO2)C1CCCCC1,2.66%
Cc1ccc(S(=O)(=O)Nc2cccc(NS(=O)(=O)c3ccc(C)cc3)c2-n2ccc3cccnc32)cc1,15.1%
CN(C)c1noc(C2CCCN(c3nccnc3C#N)C2)n1 (stereo not shown),46.8%
COc1ccc2c(c1)OC(=O)C(C(O)c1ccc3c(c1)OCO3)C2c1ccccc1 (stereo not shown),> 100%
Cc1cc(Cl)cc2c(=O)[nH]c(-c3cc(Br)nn3-c3ncccc3Cl)nc12,14.2%
Cc1oc(-c2cccc(F)c2F)nc1CN(C)CC1CCCNC1 (stereo not shown),93.5%
O=C1NCC(Cn2c3ccccc3c3ccccc32)O1 (stereo not shown),60.1%
CSc1nnc(CNC(=O)OC(C)(C)C)n1-c1ccccc1,84.7%

# Study 4 — read-out: enzyme activity; action: inhibitor; concentration: 0.5 µM; relative to: control
# Target: Activated CDC42 kinase 1 (TNK2, Homo sapiens, UniProt Q07912)
# Sequence of UniProt Q07912 (whole entry, looked up): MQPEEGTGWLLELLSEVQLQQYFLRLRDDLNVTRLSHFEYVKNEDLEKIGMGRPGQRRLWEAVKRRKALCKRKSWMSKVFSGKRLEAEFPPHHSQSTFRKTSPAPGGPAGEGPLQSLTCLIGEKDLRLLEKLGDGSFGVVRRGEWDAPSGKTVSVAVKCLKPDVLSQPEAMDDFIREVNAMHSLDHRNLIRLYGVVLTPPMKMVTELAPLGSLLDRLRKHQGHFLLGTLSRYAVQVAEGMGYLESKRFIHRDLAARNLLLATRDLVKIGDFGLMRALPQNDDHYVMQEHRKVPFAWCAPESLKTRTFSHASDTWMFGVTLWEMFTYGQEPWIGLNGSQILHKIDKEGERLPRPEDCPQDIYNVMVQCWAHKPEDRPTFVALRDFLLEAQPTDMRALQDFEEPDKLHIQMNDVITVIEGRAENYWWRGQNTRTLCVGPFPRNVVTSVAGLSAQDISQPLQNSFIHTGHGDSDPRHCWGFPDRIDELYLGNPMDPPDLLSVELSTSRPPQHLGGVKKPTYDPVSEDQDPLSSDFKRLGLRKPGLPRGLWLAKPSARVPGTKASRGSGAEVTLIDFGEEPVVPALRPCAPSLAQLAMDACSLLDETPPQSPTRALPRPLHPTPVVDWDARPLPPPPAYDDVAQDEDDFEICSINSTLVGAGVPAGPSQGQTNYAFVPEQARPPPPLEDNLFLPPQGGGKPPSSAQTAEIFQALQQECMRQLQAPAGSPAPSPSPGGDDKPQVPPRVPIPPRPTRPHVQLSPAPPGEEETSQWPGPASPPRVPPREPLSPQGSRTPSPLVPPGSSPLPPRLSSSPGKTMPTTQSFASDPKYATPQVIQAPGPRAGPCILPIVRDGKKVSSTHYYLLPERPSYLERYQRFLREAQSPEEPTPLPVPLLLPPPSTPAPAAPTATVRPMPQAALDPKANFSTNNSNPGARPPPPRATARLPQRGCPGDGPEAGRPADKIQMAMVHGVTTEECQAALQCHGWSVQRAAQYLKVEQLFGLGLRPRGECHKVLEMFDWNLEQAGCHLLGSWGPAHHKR
Compound,remaining activity [%]
CC(C)[C@H](CO)Nc1nc(Nc2cccc(Cl)c2)c2ncn(C(C)C)c2n1,55.6
C[S+]([O-])c1ccc(-c2nc(-c3ccncc3)c(-c3ccc(F)cc3)[nH]2)cc1 (stereo not shown),82.1
O=c1cc(N2CCOCC2)oc2c1ccc1ccccc12,100
CCOc1cc2ncnc(Nc3cccc(Br)c3)c2cc1OCC,58.8
O=C1NC(=O)/C(=C/c2ccc3nccnc3c2)S1,91.4
COc1ccc(-c2cnc3c(-c4ccsc4)cnn3c2)cc1,92.2
Nc1[nH]nc2nnc(-c3c(-c4ccccc4)nn4ccccc34)cc12,82.7
CC(=O)O/N=C1/C(c2c(O)[nH]c3cc(Br)ccc23)=Nc2ccccc21,74.7
COc1cc2ncnc(Nc3ccc(OCc4ccccc4)cc3)c2cc1OC,53.1
CCC(=O)Nc1ccc2ncnc(Nc3cccc(Br)c3)c2c1,93.5
Cc1nc(Nc2ncc(C(=O)Nc3c(C)cccc3Cl)s2)cc(N2CCN(CCO)CC2)n1,2.62

# Some of these lines once more (study 2):
target,test,remaining binding [%]
"FLT3 (Homo sapiens, UniProt P36888, D835V/ITD)","cell-free assay, competition with immobilised ligand",99
"WNK3 (Homo sapiens, UniProt Q9BYP7)","cell-free assay, competition with immobilised ligand",87
"TTK (Homo sapiens, UniProt P33981)","cell-free assay, competition with immobilised ligand",100
"AAK1 (Homo sapiens, UniProt Q2M2I8)",binding,100
"CDK13 (Homo sapiens, UniProt Q14004)","cell-free assay, competition with immobilised ligand",98
